# Assay results pooled from the literature.
# Each numbered part is a random draw from the data of one study; scales do not carry over between parts. Several values in a cell are separate wells, animals, samples, runs or records.
# Chain of UniProt P42685 (whole entry, looked up): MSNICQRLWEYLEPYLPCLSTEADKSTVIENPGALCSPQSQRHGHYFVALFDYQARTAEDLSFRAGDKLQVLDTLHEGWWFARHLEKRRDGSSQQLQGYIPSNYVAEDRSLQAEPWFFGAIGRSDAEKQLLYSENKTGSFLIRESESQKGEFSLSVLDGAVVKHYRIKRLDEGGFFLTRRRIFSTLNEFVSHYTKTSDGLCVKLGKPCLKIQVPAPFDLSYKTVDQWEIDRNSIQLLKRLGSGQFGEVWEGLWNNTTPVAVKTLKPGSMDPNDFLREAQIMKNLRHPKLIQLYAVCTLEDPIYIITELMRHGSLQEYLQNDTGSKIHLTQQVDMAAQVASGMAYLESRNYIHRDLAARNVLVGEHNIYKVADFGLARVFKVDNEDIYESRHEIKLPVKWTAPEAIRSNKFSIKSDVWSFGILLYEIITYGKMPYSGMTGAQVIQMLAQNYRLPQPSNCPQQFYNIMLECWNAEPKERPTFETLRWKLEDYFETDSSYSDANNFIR
# Chain of UniProt P42336 (whole entry, unmodified, looked up): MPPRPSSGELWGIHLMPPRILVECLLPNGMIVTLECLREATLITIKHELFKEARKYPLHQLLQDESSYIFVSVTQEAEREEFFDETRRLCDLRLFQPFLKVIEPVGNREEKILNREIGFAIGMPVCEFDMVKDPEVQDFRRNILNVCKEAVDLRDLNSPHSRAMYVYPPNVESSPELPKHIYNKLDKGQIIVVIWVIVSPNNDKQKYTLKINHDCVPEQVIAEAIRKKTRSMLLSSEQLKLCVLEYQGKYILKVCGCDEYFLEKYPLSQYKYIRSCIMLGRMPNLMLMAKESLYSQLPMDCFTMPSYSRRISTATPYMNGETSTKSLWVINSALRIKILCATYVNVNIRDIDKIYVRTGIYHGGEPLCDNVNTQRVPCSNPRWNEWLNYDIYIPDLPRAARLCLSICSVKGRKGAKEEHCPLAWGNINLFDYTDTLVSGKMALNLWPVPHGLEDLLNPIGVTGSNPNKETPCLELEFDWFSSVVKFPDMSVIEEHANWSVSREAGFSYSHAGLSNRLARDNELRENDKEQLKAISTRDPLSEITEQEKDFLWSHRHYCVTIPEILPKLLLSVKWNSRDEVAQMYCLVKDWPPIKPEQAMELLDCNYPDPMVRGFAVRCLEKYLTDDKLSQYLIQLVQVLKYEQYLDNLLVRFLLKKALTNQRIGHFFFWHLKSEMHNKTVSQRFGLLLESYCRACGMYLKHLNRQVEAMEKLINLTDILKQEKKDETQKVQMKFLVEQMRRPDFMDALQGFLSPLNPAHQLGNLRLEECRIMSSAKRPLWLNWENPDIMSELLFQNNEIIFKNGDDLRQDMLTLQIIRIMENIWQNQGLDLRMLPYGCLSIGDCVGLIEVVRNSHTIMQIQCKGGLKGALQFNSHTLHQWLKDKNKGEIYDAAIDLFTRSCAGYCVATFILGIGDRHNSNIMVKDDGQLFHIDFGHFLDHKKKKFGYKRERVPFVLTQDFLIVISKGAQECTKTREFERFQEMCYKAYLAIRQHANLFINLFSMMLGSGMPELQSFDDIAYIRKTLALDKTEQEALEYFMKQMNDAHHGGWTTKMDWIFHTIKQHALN
# Chain of UniProt P30291 (whole entry, looked up): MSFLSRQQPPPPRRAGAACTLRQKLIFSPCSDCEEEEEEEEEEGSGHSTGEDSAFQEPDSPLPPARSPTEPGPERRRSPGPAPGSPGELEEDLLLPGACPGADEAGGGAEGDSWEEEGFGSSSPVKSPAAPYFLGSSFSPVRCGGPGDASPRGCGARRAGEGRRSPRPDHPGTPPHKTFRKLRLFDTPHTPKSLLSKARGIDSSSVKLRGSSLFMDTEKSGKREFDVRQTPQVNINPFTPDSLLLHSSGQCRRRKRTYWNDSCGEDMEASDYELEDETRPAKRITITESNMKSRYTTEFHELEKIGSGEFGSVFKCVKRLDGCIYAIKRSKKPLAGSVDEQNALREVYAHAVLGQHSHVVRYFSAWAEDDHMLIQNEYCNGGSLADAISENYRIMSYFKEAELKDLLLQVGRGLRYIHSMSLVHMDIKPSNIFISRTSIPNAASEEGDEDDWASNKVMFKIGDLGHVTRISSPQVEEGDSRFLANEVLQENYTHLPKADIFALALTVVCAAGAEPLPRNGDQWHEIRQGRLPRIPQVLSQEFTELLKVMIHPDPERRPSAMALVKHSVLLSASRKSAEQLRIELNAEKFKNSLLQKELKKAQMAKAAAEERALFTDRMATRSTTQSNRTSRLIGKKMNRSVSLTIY
# Chain of UniProt O75716 (whole entry, looked up): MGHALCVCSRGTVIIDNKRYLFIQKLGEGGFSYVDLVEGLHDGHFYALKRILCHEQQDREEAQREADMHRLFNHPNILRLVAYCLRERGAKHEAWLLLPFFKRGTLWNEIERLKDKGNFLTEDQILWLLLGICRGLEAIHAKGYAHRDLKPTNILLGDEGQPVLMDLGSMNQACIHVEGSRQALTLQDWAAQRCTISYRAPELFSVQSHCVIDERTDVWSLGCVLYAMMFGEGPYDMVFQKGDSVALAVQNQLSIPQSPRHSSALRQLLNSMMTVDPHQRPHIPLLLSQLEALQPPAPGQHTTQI

# Series 1
# Target: DNA polymerase theta, ATPase domain (POLQ, Homo sapiens, UniProt O75417)
# Chain of UniProt O75417 (whole entry, unmodified, looked up): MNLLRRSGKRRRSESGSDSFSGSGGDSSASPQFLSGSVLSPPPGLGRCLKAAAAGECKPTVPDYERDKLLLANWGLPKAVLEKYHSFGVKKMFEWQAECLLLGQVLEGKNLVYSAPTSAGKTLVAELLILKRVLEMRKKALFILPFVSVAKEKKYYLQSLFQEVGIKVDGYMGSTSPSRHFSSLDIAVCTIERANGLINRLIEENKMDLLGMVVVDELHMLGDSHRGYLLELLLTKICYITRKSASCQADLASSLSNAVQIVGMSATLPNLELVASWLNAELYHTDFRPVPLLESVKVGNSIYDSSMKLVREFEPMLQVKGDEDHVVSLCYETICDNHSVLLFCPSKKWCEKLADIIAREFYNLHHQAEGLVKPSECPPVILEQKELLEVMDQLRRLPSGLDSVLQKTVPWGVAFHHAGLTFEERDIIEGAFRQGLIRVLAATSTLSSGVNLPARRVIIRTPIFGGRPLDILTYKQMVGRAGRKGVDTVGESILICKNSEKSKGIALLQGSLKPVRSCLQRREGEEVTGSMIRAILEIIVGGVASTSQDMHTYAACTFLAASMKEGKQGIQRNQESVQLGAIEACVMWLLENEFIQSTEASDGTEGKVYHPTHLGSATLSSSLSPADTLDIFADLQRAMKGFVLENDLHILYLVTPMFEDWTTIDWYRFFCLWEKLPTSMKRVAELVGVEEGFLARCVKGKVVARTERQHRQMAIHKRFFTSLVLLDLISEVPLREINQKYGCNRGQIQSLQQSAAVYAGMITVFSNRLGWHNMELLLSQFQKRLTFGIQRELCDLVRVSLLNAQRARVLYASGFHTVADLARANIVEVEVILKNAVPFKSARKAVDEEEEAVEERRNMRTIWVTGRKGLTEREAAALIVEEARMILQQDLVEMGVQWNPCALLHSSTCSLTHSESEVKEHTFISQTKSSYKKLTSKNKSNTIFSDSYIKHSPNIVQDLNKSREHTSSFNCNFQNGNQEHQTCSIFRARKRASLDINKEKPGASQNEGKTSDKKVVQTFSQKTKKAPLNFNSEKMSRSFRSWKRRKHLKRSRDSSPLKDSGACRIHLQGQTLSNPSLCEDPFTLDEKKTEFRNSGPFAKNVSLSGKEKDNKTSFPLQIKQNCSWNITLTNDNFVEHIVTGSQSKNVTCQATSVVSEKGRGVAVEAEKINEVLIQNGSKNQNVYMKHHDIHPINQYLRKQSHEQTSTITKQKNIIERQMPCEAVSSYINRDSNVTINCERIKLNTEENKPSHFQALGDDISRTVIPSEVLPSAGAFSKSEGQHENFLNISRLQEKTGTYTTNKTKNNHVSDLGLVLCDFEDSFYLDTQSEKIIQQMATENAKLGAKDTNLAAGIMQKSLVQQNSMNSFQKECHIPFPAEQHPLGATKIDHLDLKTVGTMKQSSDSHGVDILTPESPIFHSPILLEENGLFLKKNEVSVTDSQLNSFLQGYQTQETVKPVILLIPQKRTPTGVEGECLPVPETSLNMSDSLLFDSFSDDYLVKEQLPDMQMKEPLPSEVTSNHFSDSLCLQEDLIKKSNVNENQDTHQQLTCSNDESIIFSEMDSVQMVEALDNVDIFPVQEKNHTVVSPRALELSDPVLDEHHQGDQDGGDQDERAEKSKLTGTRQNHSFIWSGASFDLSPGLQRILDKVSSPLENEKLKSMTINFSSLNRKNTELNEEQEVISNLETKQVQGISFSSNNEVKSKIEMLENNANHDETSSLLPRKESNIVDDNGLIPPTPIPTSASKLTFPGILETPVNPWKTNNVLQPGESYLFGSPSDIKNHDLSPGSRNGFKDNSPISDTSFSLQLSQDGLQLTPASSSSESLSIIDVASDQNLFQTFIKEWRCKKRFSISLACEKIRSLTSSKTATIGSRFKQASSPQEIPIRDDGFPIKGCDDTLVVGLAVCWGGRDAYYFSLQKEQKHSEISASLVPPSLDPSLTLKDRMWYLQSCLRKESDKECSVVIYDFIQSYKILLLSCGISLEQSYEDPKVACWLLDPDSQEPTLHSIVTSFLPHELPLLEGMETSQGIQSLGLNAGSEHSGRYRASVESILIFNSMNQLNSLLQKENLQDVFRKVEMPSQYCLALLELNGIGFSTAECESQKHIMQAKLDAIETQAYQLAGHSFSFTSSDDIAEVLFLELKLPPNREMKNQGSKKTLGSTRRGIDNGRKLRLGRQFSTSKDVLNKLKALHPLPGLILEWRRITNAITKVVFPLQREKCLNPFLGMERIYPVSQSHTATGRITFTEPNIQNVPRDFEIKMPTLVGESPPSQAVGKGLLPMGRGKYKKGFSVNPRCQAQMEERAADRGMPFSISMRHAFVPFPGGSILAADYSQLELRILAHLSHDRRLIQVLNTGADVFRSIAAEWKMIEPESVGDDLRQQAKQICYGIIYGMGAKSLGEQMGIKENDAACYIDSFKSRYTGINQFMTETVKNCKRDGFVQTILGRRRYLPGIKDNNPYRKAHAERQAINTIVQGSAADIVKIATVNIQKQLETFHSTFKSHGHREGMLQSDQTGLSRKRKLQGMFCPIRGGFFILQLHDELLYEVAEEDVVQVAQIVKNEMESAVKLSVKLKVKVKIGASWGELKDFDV
# Effect on: enzyme activity
# Mode: inhibitor
# Tested at: 77 µM
# Baseline: untreated
SMILES,remaining activity
C/C=C1\NC(=O)[C@H]2CSSCC/C=C/[C@H](CC(=O)N[C@H](C(C)C)C(=O)N2)OC(=O)[C@H](C(C)C)NC1=O,101%
Nc1ncnc2c1nc(Br)n2[C@@H]1O[C@@H]2COP(=O)(O)O[C@H]2[C@H]1O,101%
CN(CC(=O)N(Cc1ccc(C2CCCCC2)cc1)c1ccc(C(=O)O)cc1)S(=O)(=O)c1c(F)c(F)c(F)c(F)c1F,73.6%
NCCCCCC(=O)O,91.7% and 97%
O=C1Cc2c([nH]c3ccc(Br)cc23)-c2ccccc2N1,100% and 105%
COc1cc([S+](C)[O-])ccc1-c1nc2cccnc2[nH]1 (stereo not shown),91.7%
NC(=O)CNCCC(c1ccccc1)c1ccccc1,106%
O=C(OCC(O)CO)c1ccccc1Nc1ccnc2cc(Cl)ccc12 (stereo not shown),102%
Cc1cc(CN2CCN(c3c(Br)cnc4nc(-c5ccc(N6CCN(C)CC6)cc5)[nH]c34)CC2)no1,104%
Cn1c(Nc2ccc(C(F)(F)F)cc2)nc2cc(Oc3ccnc(-c4ncc(C(F)(F)F)[nH]4)c3)ccc21,98.2%

# Series 2
# Structure (SMILES): COc1cc2ncnc(Nc3ccc(Oc4ccccc4)cc3)c2cc1OC
# Effect on: enzyme activity
# Mode: inhibitor
# Tested at: 0.5 µM
# Baseline: control
target,remaining activity [%]
"NEK1 (Homo sapiens, UniProt Q96PY6)",101
"ULK3 (Homo sapiens, UniProt Q6PHR2)",94.7
"CSNK1G2 (Homo sapiens, UniProt P78368)",99.9
"FRK (Homo sapiens, UniProt P42685)",72.2
"WEE1 (Homo sapiens, UniProt P30291)",99.1
"FGFR3 (Homo sapiens, UniProt P22607)",87.1
"EPHA3 (Homo sapiens, UniProt P29320)",101
"GSK3B (Homo sapiens, UniProt P49841)",109
"TEK (Homo sapiens, UniProt Q02763)",99.7
"MAPK3 (Homo sapiens, UniProt P27361)",105
"MERTK (Homo sapiens, UniProt Q12866)",51.2
"TBK1 (Homo sapiens, UniProt Q9UHD2)",93.7
"RPS6KA2 (Homo sapiens, UniProt Q15349)",98
"MAPKAPK2 (Homo sapiens, UniProt P49137)",103

# Series 3
# Structure (SMILES): O=c1nc(-c2ccccn2)sc2ccccc12
# Technique: competition with immobilised ligand
# Tested at: 1 µM
target,assay,remaining binding [%]
"STK16 (Homo sapiens, UniProt O75716)",binding,83
"TLK2 (Homo sapiens, UniProt Q86UE8)",cell-free assay,96
"SLK (Homo sapiens, UniProt Q9H2G2)",binding,85
"PIK3CA (Homo sapiens, UniProt P42336, I800L)",cell-free assay,84
"CHEK1 (Homo sapiens, UniProt O14757)",binding,85
"MAP2K6 (Homo sapiens, UniProt P52564)",binding,100
"TRPM6 (Homo sapiens, UniProt Q9BX84)",cell-free assay,77
"Tyrosine-protein kinase ABL1, non-phosphorylated (ABL1, Homo sapiens, UniProt P00519, H396P)",binding,100

# Series 4
# Host: mouse
# Medium: microsomes or S9
# Tested at: 2 µM
# Time: 0.5 h
SMILES,remaining compound [%]
O=S(=O)(NCc1ccncc1O[C@H]1CCNC1)c1ccco1,67.2
Cc1nnc(-c2nnc(N3CCN(C4CCCCC4)CC3)c3ccccc23)o1,48.7
CCc1c(C(=O)c2cc(F)cc(F)c2)n(C/C=C/c2ccccc2)c(=O)[nH]c1=O,11.4
NC1=C(c2nc3ccccc3s2)C(=O)CN1CC1COCCO1 (stereo not shown),50.1
Cc1ccc(S(=O)(=O)N2CCN(C(=O)CN3CCOCC3)C2c2ccc(Cl)cc2Cl)cc1 (stereo not shown),1.71
Nc1ncnc2c1ncn2C[C@@H]1CC[C@H](c2nc(C3CCC3)no2)O1,> 100
N#Cc1c(N)c(-c2ccccc2)c(F)c2ccccc12,22.4
Cc1ccc2c(=O)c(-c3nc(-c4ccccc4C)no3)cn(CC(=O)NC3CCc4ccccc43)c2n1 (stereo not shown),0.555

# Repeated from above (series 1):
SMILES,remaining activity
O=C1Cc2c([nH]c3ccc(Br)cc23)-c2ccccc2N1,100% and 105%
COc1cc([S+](C)[O-])ccc1-c1nc2cccnc2[nH]1 (stereo not shown),91.7%
NC(=O)CNCCC(c1ccccc1)c1ccccc1,106%
O=C(OCC(O)CO)c1ccccc1Nc1ccnc2cc(Cl)ccc12 (stereo not shown),102%
